Results pooled from the literature.
Each numbered part is a random draw from the data of one study; scales do not carry over between parts.

Series 1
Target: Interferon regulatory factor 7, full length, phosphomimetic (IRF7, Homo sapiens, UniProt Q92985, residues 1-503, S471D/S472D/S475D/S476D/S477D/S483D/S484D/S487D)
Method: protein-binding microarray
Molecule type: double-stranded DNA, one strand shown
Medium: in vitro
Tested at: 2200 nM top
Setting: 60-bp whole probe
With: salmon DNA 0.4 mg/ml
Reference: random background probes
Reading: higher = stronger binding
All sequences stand within: GCCTAGCAC … GTCTTGATTCGCTTGACGCTGCTG
Residues (chain): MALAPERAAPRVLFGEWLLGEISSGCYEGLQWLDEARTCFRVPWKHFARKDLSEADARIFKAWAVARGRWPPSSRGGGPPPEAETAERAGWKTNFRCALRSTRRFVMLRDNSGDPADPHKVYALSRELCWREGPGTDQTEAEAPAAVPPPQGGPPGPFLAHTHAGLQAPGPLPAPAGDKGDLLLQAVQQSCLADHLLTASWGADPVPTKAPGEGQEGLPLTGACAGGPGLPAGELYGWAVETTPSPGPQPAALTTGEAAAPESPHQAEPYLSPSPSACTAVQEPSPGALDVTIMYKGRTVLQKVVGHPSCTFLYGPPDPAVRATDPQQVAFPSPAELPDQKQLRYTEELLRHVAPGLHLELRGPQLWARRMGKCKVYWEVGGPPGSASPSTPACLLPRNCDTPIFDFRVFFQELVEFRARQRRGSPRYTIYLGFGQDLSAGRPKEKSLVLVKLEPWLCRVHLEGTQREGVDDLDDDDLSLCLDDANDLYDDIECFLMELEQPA
Oligonucleotide | fitted relative affinity
GACGATCTCACTCTCGAGACGTGCTAG | 0.703 z-score
GTATATATGTGTATATATAAGTGCTAG | 0.797 z-score
GACGGTTTCCTTATTCTGACGTGCTAG | 2.43 z-score
GACGGTTTCGACTATCGGTACGTGCTA | 3.7 z-score
GACGATCTCGGTCTCGAGACGTGCTAG | 0.153 z-score
GACGATCTCAGACTGGATACGTGCTAG | 0.141 z-score
TTAGGTTCCCTTTGCCTTTAGTGCTAG | 2.05 z-score
GACGGTATCGGTATCGGTACGTGCTAG | 0.695 z-score
TCAGGTCTCGGACTGGGTTAGTGCTAG | -0.0165 z-score
TTAGATTTCAGTTCCGATCAGTGCTAG | 1.59 z-score
GACGGACTGCTTTTCCAGACGTGCTAG | 0.397 z-score

Series 2
Target: RNA binding protein fox-1 homolog 2, RRM domain, GST-SBP tag (RBFOX2, Homo sapiens, UniProt O43251-10, residues 100-194)
Method: RNA Bind-n-Seq
Molecule type: RNA
Medium: in vitro
Tested at: 365 nM
Setting: natural RNA segment, single round, ends assumed
Reference: no-protein control
Reading: higher = stronger binding
Construct (chain): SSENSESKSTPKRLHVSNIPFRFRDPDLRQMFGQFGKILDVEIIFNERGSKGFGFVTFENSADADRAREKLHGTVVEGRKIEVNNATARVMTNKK
Oligonucleotide | RBNS enrichment (R)
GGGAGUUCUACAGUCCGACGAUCCAAAUUGUCAACUCCCUUGCCCAAUACUGGUGGGCUGUGAACAGCCUAAGGGACCUCGCUCCAGCUGGUUGGGCACAGCAGGCUCCUGCCCUGGUGCUUUCAGCUUCCCCUGGAAUUCUCGGGUGCCAA | 0.25
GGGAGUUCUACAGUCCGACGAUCAAUGUUAAAUUGUUUAUAUUUAAGUAAUUAGCUUAAAAAUAUAGUUUUAUGUUUUGUACAUUAAUUGAUUAAUAAAAUAAUAAUUUUAUGUGAGAAUGUUUUCAAAAAGCUGGAAUUCUCGGGUGCCAA | 0.652
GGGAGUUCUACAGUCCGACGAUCACUGUUCUGCGUUGGAACAGAUGGAGUGAGAAACCCUACAGCCUGCCCGAACCCAGACUCUCCCCCAAAGCCAAGACCUCCUAUGCAAUAAUGCCCCCCUCCAACCCCACUGGAAUUCUCGGGUGCCAA | 1.69
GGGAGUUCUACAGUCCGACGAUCGGGAUAUGUAGGUCAAAUCAAAUUAAAGAUGAUUUUUUUAAUGUGAAUAAAGUUAUGUUCUGAUAGUUUGUACAGAAAAAAUAAAAUGGAUGCCCAUGUUUUAUUGCUAUUGGAAUUCUCGGGUGCCAA | 8.38
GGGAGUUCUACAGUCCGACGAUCCAAUCAUGGGCUCCCACCAAUAAACACUUUACGGGUGGGUGUGUGUGUGUGUGCGCGCGCGCGCAUGUGCGCAUACUGUGUAAUGUUGGAAAAGGGAUGAAAUUGAAGAAUGGAAUUCUCGGGUGCCAA | 0.31
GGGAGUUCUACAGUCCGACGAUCAGCUGAGCCGAAUGGAGACAGCUGAGCUGAGGCCUGACUUUUUCAAUAAAACAUUGUGUAGUUCUGGCCUCCUGCUGCCCCGGCUCUGUUUCCCCUGGCGCCAAGAGAAGUGGAAUUCUCGGGUGCCAA | 0.195
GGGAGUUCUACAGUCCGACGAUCGAUAGGAUGUUUUGUUUCCUUGAUAAAACAAAUGUAAAUGAGGAAUUUUAUUUGAAUUGGAAUAUUGUUUUUCUAGAGGACAUUCAUAUCUGCACUAUUAUCUGAUGACAUGGAAUUCUCGGGUGCCAA | 1.19
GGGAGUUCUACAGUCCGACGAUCAACAUAGUUUGUAAAGGCAUUCUAUAAGCUAUUUAUGUAAAAUCAAUAAAAGUUGAUCAUAAUUAAACUGUAUCAGUUGAGUAUUAUAGCAGCACAAAGUAUUCUUUGUAUGGAAUUCUCGGGUGCCAA | 1.07

Series 3
Target: Sal-like protein 4, full length isoform B (SALL4, Homo sapiens, UniProt Q9UJQ4-2, residues 1-616)
Method: universal PBM
Molecule type: double-stranded DNA, one strand shown
Medium: in vitro
Tested at: not given
Setting: 8-mer, flanks averaged, mean of replicates
Reading: higher = stronger binding
Oligonucleotide | E-score
AAACCCAC | -0.036
AAAGTTAG | 0.0698
ATTCCTCA | 0.132
GACCTTTA | 0.0919
GGTGCTAC | -0.128
TCCCCGCA | -0.234
GAGGATAC | 0.105
AGGTGGAT | -0.0937
GAATGTGC | 0.0358
TGAGCGAA | -0.0583
CCAATATC | 0.148
CCGTCAAG | -0.247
ACAGTCCA | -0.0834
GACCAAGC | -0.0856
ATAATTGG | 0.273
TGGCGCCA | -0.353

Mixed results
Molecule | target | assay | test system | conditions | how to read | measurement | value
PhoQ, residues 284 288 289 292 302 303 SLCLSL | PhoP, residues 12 14 15 18 19 TQCLL (Escherichia coli, UniProt P23836) | Sort-seq, refers to: YFP reporter | E. coli | PhoQ-PhoP variant library, with: 10 µM Mg2+ | reference: high Mg2+ state, higher = stronger signaling | fold induction | 1.06

For quick reference, copied from above (series 2):
Oligonucleotide | RBNS enrichment (R)
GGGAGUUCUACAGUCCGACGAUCAGCUGAGCCGAAUGGAGACAGCUGAGCUGAGGCCUGACUUUUUCAAUAAAACAUUGUGUAGUUCUGGCCUCCUGCUGCCCCGGCUCUGUUUCCCCUGGCGCCAAGAGAAGUGGAAUUCUCGGGUGCCAA | 0.195
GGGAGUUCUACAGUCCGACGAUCCAAUCAUGGGCUCCCACCAAUAAACACUUUACGGGUGGGUGUGUGUGUGUGUGCGCGCGCGCGCAUGUGCGCAUACUGUGUAAUGUUGGAAAAGGGAUGAAAUUGAAGAAUGGAAUUCUCGGGUGCCAA | 0.31
